Published values collected from several papers.
Lines come from different studies, so protocols differ. Values joined by “and” are separate records of one study, mostly repeats; a detail may differ. Numbers after ± are the reported error.
GBA1 R534H: Lysosomal acid glucosylceramidase (GBA1, Homo sapiens, UniProt P04062, R534H)
Chain of UniProt P04062 (whole entry, unmodified, looked up): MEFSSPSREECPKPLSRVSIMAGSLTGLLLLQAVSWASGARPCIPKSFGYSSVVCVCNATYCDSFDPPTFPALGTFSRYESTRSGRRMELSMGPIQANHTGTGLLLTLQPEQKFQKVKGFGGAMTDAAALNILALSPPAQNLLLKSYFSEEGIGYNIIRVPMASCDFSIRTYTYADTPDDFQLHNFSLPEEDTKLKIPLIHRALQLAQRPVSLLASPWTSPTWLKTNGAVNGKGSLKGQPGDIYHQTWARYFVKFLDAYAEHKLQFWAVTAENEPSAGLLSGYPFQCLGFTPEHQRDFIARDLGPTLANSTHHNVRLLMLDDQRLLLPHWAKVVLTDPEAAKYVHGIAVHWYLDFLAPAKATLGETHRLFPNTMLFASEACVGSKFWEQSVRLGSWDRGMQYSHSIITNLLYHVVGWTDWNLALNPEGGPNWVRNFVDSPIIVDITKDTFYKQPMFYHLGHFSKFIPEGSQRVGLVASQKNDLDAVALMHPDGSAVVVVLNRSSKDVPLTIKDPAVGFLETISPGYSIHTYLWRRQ
JAK3: Tyrosine-protein kinase JAK3 (JAK3, Homo sapiens, UniProt P52333)
P4HB: Protein disulfide-isomerase (P4HB, Homo sapiens, UniProt P07237)
Chain of UniProt P07237 (whole entry, looked up): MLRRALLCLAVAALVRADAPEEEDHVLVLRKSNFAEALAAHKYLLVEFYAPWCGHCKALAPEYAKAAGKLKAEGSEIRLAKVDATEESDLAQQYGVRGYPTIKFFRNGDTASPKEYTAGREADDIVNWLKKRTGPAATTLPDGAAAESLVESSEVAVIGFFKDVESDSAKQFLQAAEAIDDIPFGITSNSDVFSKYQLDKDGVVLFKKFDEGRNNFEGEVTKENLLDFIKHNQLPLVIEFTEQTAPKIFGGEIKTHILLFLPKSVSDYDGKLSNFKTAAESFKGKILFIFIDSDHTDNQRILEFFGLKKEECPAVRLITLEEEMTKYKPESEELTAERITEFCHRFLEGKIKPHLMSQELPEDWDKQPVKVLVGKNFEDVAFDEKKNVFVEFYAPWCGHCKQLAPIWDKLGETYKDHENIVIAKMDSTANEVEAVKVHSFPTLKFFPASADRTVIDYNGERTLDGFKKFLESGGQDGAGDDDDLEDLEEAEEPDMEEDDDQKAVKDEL
HDAC9: Histone deacetylase 9 (HDAC9, Homo sapiens, UniProt Q9UKV0)
Chain of UniProt Q9UKV0 (whole entry, looked up): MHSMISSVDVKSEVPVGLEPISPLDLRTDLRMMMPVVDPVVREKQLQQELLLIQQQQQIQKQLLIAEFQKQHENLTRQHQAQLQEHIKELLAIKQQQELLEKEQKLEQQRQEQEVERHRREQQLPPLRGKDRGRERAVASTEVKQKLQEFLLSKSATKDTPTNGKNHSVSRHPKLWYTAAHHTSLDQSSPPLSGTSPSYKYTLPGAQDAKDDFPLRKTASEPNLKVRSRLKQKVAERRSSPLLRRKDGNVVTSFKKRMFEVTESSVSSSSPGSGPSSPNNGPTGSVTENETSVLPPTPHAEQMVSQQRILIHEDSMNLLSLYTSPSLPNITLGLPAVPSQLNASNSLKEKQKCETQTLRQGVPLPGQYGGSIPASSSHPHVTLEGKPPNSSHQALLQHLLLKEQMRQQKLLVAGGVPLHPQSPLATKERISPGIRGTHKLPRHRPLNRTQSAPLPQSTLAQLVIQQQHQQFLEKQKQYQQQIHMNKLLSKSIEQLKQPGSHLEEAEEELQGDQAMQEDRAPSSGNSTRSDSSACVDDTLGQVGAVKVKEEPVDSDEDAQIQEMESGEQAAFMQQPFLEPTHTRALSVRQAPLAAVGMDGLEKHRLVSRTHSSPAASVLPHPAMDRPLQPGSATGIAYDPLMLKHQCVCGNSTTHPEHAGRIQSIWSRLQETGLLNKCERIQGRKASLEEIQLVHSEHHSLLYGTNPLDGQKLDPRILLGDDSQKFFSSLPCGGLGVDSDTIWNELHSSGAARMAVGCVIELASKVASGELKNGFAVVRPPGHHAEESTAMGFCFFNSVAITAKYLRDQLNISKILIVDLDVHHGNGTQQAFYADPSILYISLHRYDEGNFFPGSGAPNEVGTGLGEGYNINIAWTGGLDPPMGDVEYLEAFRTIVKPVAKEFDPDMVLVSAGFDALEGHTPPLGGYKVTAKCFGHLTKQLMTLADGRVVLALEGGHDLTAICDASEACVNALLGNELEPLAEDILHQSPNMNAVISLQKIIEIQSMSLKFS
Gria1/Gria2: Glutamate receptor AMPA 1/2 (Gria1/Gria2, Rattus norvegicus, UniProt P19490+P19491)
Chain of UniProt P19490 (whole entry, looked up): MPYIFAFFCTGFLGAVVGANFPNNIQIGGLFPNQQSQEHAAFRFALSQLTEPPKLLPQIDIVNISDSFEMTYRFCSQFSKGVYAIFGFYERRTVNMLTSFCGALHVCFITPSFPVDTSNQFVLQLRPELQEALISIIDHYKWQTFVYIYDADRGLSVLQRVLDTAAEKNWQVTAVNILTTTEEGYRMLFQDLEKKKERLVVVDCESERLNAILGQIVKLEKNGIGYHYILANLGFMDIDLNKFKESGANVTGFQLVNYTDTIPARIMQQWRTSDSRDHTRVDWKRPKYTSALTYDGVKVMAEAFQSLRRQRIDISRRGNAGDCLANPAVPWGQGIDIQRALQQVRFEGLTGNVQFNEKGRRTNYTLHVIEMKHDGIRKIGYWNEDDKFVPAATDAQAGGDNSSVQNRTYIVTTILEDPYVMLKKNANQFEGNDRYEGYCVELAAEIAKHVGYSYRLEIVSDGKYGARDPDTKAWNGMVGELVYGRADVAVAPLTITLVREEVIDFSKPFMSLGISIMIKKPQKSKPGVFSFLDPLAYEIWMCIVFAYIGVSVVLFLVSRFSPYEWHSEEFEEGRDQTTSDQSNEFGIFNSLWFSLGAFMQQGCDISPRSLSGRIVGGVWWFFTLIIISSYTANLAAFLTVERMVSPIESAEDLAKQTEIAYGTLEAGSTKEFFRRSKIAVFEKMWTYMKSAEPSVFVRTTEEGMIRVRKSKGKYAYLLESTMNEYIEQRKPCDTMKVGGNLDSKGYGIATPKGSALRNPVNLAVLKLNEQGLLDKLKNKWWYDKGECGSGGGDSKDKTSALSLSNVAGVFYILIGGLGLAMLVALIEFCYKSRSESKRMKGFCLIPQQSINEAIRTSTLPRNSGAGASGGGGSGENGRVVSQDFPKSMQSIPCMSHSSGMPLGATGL
Chain of UniProt P19491 (whole entry, looked up): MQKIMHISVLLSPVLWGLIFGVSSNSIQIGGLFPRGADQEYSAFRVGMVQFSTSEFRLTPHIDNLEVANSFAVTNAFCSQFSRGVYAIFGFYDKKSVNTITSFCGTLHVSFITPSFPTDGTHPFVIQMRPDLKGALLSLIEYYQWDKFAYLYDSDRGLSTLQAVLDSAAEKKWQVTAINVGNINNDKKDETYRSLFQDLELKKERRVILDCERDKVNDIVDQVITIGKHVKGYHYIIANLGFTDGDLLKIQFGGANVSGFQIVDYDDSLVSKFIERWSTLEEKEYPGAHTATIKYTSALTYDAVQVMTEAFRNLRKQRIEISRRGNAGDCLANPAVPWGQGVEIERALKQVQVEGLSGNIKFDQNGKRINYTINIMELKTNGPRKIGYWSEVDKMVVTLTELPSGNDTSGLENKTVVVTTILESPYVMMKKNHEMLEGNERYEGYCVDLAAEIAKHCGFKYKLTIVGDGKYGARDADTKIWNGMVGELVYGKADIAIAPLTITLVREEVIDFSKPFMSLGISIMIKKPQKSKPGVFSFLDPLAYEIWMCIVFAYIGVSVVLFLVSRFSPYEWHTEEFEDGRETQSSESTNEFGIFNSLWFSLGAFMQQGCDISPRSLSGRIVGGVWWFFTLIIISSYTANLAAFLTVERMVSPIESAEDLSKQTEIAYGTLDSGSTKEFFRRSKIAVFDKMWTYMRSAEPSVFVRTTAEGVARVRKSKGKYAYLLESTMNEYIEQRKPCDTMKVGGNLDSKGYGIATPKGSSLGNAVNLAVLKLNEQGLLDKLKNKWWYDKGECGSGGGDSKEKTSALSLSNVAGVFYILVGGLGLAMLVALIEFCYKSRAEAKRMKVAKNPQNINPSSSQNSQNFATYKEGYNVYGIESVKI
HDAC6: Protein deacetylase HDAC6 (HDAC6, Homo sapiens, UniProt Q9UBN7)
Chain of UniProt Q9UBN7 (whole entry, looked up): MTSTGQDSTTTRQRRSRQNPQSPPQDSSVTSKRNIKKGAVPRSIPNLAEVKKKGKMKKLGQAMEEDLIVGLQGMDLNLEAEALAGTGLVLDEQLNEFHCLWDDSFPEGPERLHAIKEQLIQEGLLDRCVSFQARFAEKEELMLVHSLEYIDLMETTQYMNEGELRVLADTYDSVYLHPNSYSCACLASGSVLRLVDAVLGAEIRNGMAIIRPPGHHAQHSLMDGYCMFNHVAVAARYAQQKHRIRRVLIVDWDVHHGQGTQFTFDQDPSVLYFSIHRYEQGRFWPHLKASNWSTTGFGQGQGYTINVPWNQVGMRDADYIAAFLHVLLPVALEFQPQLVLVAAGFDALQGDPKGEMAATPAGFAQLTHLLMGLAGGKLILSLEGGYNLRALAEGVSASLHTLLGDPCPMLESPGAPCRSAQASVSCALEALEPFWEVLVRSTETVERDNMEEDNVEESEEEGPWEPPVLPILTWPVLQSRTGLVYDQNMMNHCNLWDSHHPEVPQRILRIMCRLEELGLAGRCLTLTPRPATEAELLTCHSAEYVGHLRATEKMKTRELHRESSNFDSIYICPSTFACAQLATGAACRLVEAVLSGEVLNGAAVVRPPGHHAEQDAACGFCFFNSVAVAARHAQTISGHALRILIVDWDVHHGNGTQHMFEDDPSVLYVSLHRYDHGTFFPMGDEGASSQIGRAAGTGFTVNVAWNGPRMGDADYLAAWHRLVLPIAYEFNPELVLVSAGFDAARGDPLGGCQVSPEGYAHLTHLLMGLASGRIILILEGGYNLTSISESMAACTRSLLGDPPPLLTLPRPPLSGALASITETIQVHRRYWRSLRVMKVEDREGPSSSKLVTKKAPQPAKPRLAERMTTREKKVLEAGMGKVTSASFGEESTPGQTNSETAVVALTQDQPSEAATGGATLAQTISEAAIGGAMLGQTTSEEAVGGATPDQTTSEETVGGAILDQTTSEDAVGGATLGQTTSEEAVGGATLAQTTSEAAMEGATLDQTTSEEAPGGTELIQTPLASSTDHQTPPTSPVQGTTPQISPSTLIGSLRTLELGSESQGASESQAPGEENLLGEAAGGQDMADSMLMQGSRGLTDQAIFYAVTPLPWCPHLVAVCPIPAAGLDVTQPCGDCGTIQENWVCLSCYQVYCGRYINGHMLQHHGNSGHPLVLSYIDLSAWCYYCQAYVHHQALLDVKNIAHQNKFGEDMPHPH

CCCCCOCCCCCN1C[C@H](O)[C@@H](O)[C@H](O)[C@H]1CO  IC50 (GBA1 R534H; inhibitor, 4MU-β-D-glucopyranoside; together with: 4MU-β-D-glucopyranoside): 705 µM
Cc1ccc2nc(C)n(/N=C/c3ccc(C(=O)O)cc3)c(=O)c2c1  IC50 (Phospholipase A2 group V (PLA2G5, Homo sapiens, UniProt P39877); enzyme activity, inhibitor, colorimetric): 93.7 ± 3.52 µM
COc1cc(C2C(NC(=O)c3ccc(NC(=O)OC(C)(C)C)cc3)(C(=O)O)C(c3ccc(OC(=O)c4cccs4)c(OC)c3)C2(NC(=O)c2ccc(NC(=O)OC(C)(C)C)cc2)C(=O)O)ccc1OC(=O)c1cccs1 (stereo not shown)  EC50 (Glucagon-like peptide 1 receptor (GLP1R, Homo sapiens, UniProt P43220, L141A); cAMP, agonist): 0.234 µM
O[C@H]1[C@H](O)[C@@H](O)c2[nH]cnc2[C@@H]1O  IC50 (bglA (Thermotoga maritima, UniProt Q08638); enzyme activity, inhibitor; pH 6.8, with preincubation): > 100 µM
Fc1ccc(Nc2nc(NC3CCCCC3)c3ccccc3n2)cc1F  IC50 (Beta-2 adrenergic receptor (ADRB2, Homo sapiens, UniProt P07550, V126A); β-arrestin2 recruitment, antagonist, BRET; HEK293; mutant V126A, together with: isoprenaline 1 µM): 1.58 µM
CCCCCCCOCCCCCN1C[C@H](O)[C@@H](O)[C@H](O)[C@H]1CO  IC50 (GBA1 R534H; inhibitor, 4MU-β-D-glucopyranoside; together with: 4MU-β-D-glucopyranoside): 1.75 µM
CCc1ccc2nc(N(CCN(C)C)C(=O)c3ccc4ncsc4c3)sc2c1  relative translation (Trypanosoma cruzi; reporter mRNA translation, inhibitor, item: capped polyadenylated Renilla luciferase mRNA; cell-free extract; concentration not given; baseline: control RNA): 105%
O=C(CSc1nc2ccccc2[nH]1)N/N=C/c1cc2c(s1)CCCC2  IC50 (1-deoxy-D-xylulose-5-phosphate synthase (dxs, Deinococcus radiodurans, UniProt Q9RUB5); inhibitor; estimated): 317 ± 30.1 µM
OC[C@H]1[C@@H](O)[C@H](O)[C@@H](O)CN1CCCCCOCc1ccc(-c2ccccc2)cc1C(F)(F)F  IC50 (GBA1 R534H; inhibitor, 4MU-β-D-glucopyranoside; together with: 4MU-β-D-glucopyranoside): 5 µM
Cc1cnc(Nc2ccc3c(c2)CCN(C(=O)/C=C/CC(C)C)C3)nc1-c1cnn(C(C)C)c1  IC50 (JAK3; enzyme activity, inhibitor, ADP detection): > 0.03 µM
COc1cc(C(=O)/C=C/c2cc(OC)c(O)c([N+](=O)[O-])c2)ccc1O  IC50 (P4HB; enzyme activity, inhibitor): 98 µM
CC(C)C[C@H](NC(=O)[C@H](Cc1ccc(CN)cc1)NC(=O)[C@H](Cc1ccccc1)N=[N+]=[N-])C(=O)N[C@@H](CCC1CCCCC1)C(=O)[C@@]1(C)CO1  IC50 (Proteasome subunit beta type-8 (PSMB8, Homo sapiens, UniProt P28062); enzyme activity, inhibitor; lysate): > 10 µM
OC[C@@H]1[C@@H](O)[C@H](O)[C@@H](O)CN1CCCCCOCc1ccccc1  IC50 (GBA1 R534H; inhibitor, 4MU-β-D-glucopyranoside; together with: 4MU-β-D-glucopyranoside): 0.3 µM
O=C(CCc1ccc(CNC(C(=O)O)C2CCCCC2)cn1)NO (stereo not shown)  IC50 (HDAC9; enzyme activity, inhibitor): > 10 µM
CC(C)(C)COCCOCCN1C[C@H](O)[C@@H](O)[C@H](O)[C@@H]1CO  IC50 (GBA1 R534H; inhibitor, 4MU-β-D-glucopyranoside; together with: 4MU-β-D-glucopyranoside): 100 µM
O=C(O)Cc1cc2c(cc1C(=O)c1cccc(Br)c1)OCO2  IC50 (Gria1/Gria2; ion current, patch clamp): 4.46 µM
C[C@@H](Nc1nc2c(cnn2C(C)(C)C)c(=O)n1Cc1cccc(F)c1)c1ccc(Cl)cc1  IC50 (High affinity cAMP-specific and IBMX-insensitive 3',5'-cyclic phosphodiesterase 8A (PDE8A, Homo sapiens, UniProt O60658); enzyme activity, inhibitor): 3.23 µM
O=C(NO)c1cc(F)cc(OS(=O)(=O)Oc2ccc3ccccc3c2)c1  IC50 (HDAC6; enzyme activity, inhibitor, fluorescence): 0.119 µM
Cc1nn(-c2cccc(N)c2)c(=O)c2cnc(Nc3ccc(N4CCNCC4)cc3)nc12  IC50 (Fibroblast growth factor receptor 1 (FGFR1, Homo sapiens, UniProt P11362); kinase activity, inhibitor, SelectScreen kinase profiling): 1.83 µM
CC(=O)OC1OC(OC(C)=O)C2CC(O)(C3(C)CCCC(C)(C)C3)CCC12 (stereo not shown)  IC50 (Peptidyl-prolyl cis-trans isomerase F, mitochondrial (PPIF, Homo sapiens, UniProt P30405); enzyme activity, inhibitor): < 0.5 µM
CC(C)c1ccc(OS(=O)(=O)Oc2cncc(C(=O)NO)c2)cc1  IC50 (HDAC6; enzyme activity, inhibitor, fluorescence): 0.063 µM
Nc1ccc(-c2ccc(F)cc2)cc1NC(=O)C1CCOCC1  IC50 (HDAC6; enzyme activity, inhibitor): > 33.3 µM
O=C(CN1CN(c2ccccc2)C2(CCN(C(=O)c3ccc4[nH]ncc4c3)CC2)C1=O)NCC(F)(F)F  IC50 (Epithelial discoidin domain-containing receptor 1 (DDR1, Homo sapiens, UniProt Q08345); ligand displacement): 0.015 µM
O=C(Nc1cc(-c2ccccn2)n[nH]1)N1CC[C@@H](Oc2ccc(F)cc2)C1  relative translation (Trypanosoma cruzi; reporter mRNA translation, inhibitor, item: capped polyadenylated Renilla luciferase mRNA; cell-free extract; concentration not given; baseline: control RNA): 119%
OC[C@@H]1[C@@H](O)[C@H](O)[C@@H](O)c2nccn21  IC50 (GBA1 R534H; 30 min preincubation, pH 5.2, together with: 200 µM 2,4-dinitrophenyl-β-D-glucopyranoside): 0.05 µM
N#Cc1c(-c2ccco2)cc(-c2cccs2)[nH]c1=O  IC50 (Protein FosB, ΔFosB isoform (Fosb, Mus musculus, UniProt P13346); DNA binding disruption, fluorescence polarization; 320 nM ΔFosB homomer, together with: TMR-cdk5 oligonucleotide 25 nM): ~7 µM and 7.1 µM
COC(=O)Cc1cc2c(cc1C(=O)c1ccccc1I)OCO2  IC50 (Gria1/Gria2; ion current, patch clamp): 5.98 µM
COCCN(C)C(C)C(=O)NC(Cc1ccc(-c2ccccc2)cc1)B(O)O (stereo not shown)  IC50 (PSMB6/PSMB7 (Homo sapiens, UniProt P28072+Q99436); β1c caspase-like activity, inhibitor; constitutive proteasome, together with: Z-LLE-AMC): > 10 µM
COc1ccccc1C(=O)/C=C/c1ccc(C(=O)O)cc1  IC50 (P4HB; enzyme activity, inhibitor): > 10 µM
CCCC(=O)OC1CCC2(C)C(CCC3(C)C2CC=C2C4C(C)C(C)CCC4(C(=O)O)CCC23C)C1(C)C (stereo not shown)  IC50 (UDP-glucuronosyltransferase 1A6 (UGT1A6, Homo sapiens, UniProt P19224); enzyme activity, inhibitor): > 100 µM
COc1cccc(/C=C/C(=O)c2ccc3c(c2)NC(=O)CO3)c1OC(F)F  IC50 (P4HB; enzyme activity, inhibitor): 96 µM
Cc1cccc(-c2ccc(COCCCCCN3C[C@H](O)[C@@H](O)[C@H](O)[C@H]3CO)cc2)c1  IC50 (GBA1 R534H; inhibitor, 4MU-β-D-glucopyranoside; together with: 4MU-β-D-glucopyranoside): 0.25 µM
COC(=O)Cc1cc2c(cc1C(=O)c1ccccc1Cl)OCO2  IC50 (Gria1/Gria2; ion current, antagonist, patch clamp): 5.25 µM
CCc1nnc(Nc2cnc([C@@H]3CCCN(C(=O)CCc4cccnc4)C3)cn2)s1  IC50 (Cyclin-dependent kinase 6 (CDK6, Homo sapiens, UniProt Q00534); enzyme activity, inhibitor, ADP detection): 0.498 µM
CC[C@H](C)C(=O)O[C@H]1C[C@@H](C)C=C2C=C[C@H](C)[C@H](CC[C@@H]3CC=CC(=O)O3)[C@H]21  IC50 (Cystic fibrosis transmembrane conductance regulator (CFTR, Homo sapiens, UniProt P13569); apical chloride current, inhibitor; T84, basolaterally permeabilized; together with: genistein 20 µM): 4.35 µM
O=C(CNc1cccc2c1C(=O)N(C1CCC(=O)NC1=O)C2=O)NCCOCCOCCOCC(=O)N1CCC(CNC(=O)c2cccc(-c3noc(C(F)(F)F)n3)c2)(c2nc(-c3ccccc3)cs2)CC1 (stereo not shown)  IC50 (HDAC9; enzyme activity, inhibitor): 0.18 µM
O=C(CCN(Cc1cccnc1)Cc1ccc(Cl)c(O)c1F)NO  IC50 (Meprin A subunit alpha (MEP1A, Homo sapiens, UniProt Q16819); enzyme activity, inhibitor): 1.1 µM
C[C@](C(=O)NC1CCOCC1)(c1cncnc1)N(C(=O)[C@H](F)Cl)c1ccc(OC(F)(F)Cl)cc1  IC50 (Replicase polyprotein 1ab, main protease (rep, Human coronavirus NL63, UniProt P0C6X5); enzyme activity, inhibitor): 0.014 µM
COc1cc(/C=C/C(=O)c2ccc(F)cc2F)cc(Cl)c1O  IC50 (P4HB; enzyme activity, inhibitor): 6.52 µM
C=CC(=O)Nc1ccc(F)c(-c2ncnc3[nH]cc(C(=O)OCC)c23)c1  IC50 (JAK3; inhibitor, kinase; together with: ATP 1 mM): 0.00743 µM
CN(C)c1ccc(C(=O)/C=C/c2ccc(O)cc2)cc1  IC50 (P4HB; enzyme activity, inhibitor): 64 µM
OC[C@@H]1[C@@H](O)[C@H](O)[C@@H](O)CN1CCCCCOCC1CCCCC1  IC50 (GBA1 R534H; inhibitor, 4MU-β-D-glucopyranoside; together with: 4MU-β-D-glucopyranoside): 1.5 µM
CCOc1cc(CN2CC3(CC(N4CCC(C(=O)O)CC4)=NO3)C2)cc(OCC)c1-c1ccc(F)cc1  IC50 (Somatostatin receptor type 5 (SSTR5, Homo sapiens, UniProt P35346, N100V); cAMP level, agonist, GloSensor; AD293; N100V mutant, together with: CST17 EC80 and forskolin): 0.525 µM
Cc1nc2c(F)cc(-c3nc(Nc4ccc(CNC(=O)CCCCCCC(=O)NO)cc4)ncc3F)cc2n1C(C)C  IC50 (Polyamine deacetylase HDAC10 (HDAC10, Homo sapiens, UniProt Q969S8); enzyme activity, inhibitor): 0.073 µM
COC(=O)c1cc(Br)cc(C#Cc2ccc(NC(=O)c3cccc4c3NC(=O)C43CC(NC(=O)OC(C)(C)C)C(=O)O3)cc2)c1 (stereo not shown)  IC50 (D-3-phosphoglycerate dehydrogenase (PHGDH, Homo sapiens, UniProt O43175); enzyme activity, inhibitor): 2.5 µM
C[C@@H](O)[C@@H]1NC(=O)[C@H](CCCCN)NC(=O)[C@@H](Cc2c[nH]c3ccccc23)NC(=O)[C@H](Cc2ccc(NC(N)=O)cc2)NC(=O)[C@H](NC(=O)[C@@H](N)Cc2ccc(Cl)cc2)CSSC[C@@H](C(=O)N[C@@H](Cc2ccc3ccccc3c2)C(N)=O)NC1=O  IC50 (Somatostatin receptor type 1 (SSTR1, Homo sapiens, UniProt P30872); ligand displacement, radioligand): > 1 µM
COC(=O)c1ccc(/C=C/C(=O)c2ccc(N3CCCCC3)cc2)cc1  IC50 (P4HB; enzyme activity, inhibitor): > 100 µM
CCCCCN1C[C@H](O)[C@@H](O)[C@H](O)[C@@H]1CO  IC50 (GBA1 R534H; inhibitor, 4MU-β-D-glucopyranoside; together with: 4MU-β-D-glucopyranoside): 1000 µM
O=C(O)Cc1cc2c(cc1C(=O)c1cccc(Cl)c1)OCO2  IC50 (Gria1/Gria2; ion current, patch clamp): 4.19 µM
CCN1CCN(c2ccc(C(=O)/C=C/c3ccc(O)c(OC)c3)cc2F)CC1  IC50 (P4HB; enzyme activity, inhibitor): > 10 µM
CCCCCCCCCCCCCCN(O)C(=O)CCCCC[C@@H]1NC(=O)[C@H]([C@@H](C)CC)NC(=O)[C@H](Cc2ccccc2C(F)(F)F)NC(=O)CCSCc2cccc(n2)CSCCCNC1=O  IC50 (HDAC9; enzyme activity, inhibitor, fluorogenic): > 30 µM
Cc1cc(C)nc(NC(=S)N2CCN(c3ccc(C(F)(F)F)cn3)CC2)c1  IC50 (Glycerol-3-phosphate dehydrogenase 1-like protein (GPD1L, Homo sapiens, UniProt Q8N335); enzyme activity; counterscreen): > 100 µM

Excerpt of the above:
Fc1ccc(Nc2nc(NC3CCCCC3)c3ccccc3n2)cc1F  IC50 (Beta-2 adrenergic receptor (ADRB2, Homo sapiens, UniProt P07550, V126A); β-arrestin2 recruitment, antagonist, BRET; HEK293; mutant V126A, together with: isoprenaline 1 µM): 1.58 µM
OC[C@H]1[C@@H](O)[C@H](O)[C@@H](O)CN1CCCCCOCc1ccc(-c2ccccc2)cc1C(F)(F)F  IC50 (GBA1 R534H; inhibitor, 4MU-β-D-glucopyranoside; together with: 4MU-β-D-glucopyranoside): 5 µM
CC(C)C[C@H](NC(=O)[C@H](Cc1ccc(CN)cc1)NC(=O)[C@H](Cc1ccccc1)N=[N+]=[N-])C(=O)N[C@@H](CCC1CCCCC1)C(=O)[C@@]1(C)CO1  IC50 (Proteasome subunit beta type-8 (PSMB8, Homo sapiens, UniProt P28062); enzyme activity, inhibitor; lysate): > 10 µM
Cc1nn(-c2cccc(N)c2)c(=O)c2cnc(Nc3ccc(N4CCNCC4)cc3)nc12  IC50 (Fibroblast growth factor receptor 1 (FGFR1, Homo sapiens, UniProt P11362); kinase activity, inhibitor, SelectScreen kinase profiling): 1.83 µM
CC(=O)OC1OC(OC(C)=O)C2CC(O)(C3(C)CCCC(C)(C)C3)CCC12 (stereo not shown)  IC50 (Peptidyl-prolyl cis-trans isomerase F, mitochondrial (PPIF, Homo sapiens, UniProt P30405); enzyme activity, inhibitor): < 0.5 µM
COC(=O)c1ccc(/C=C/C(=O)c2ccc(N3CCCCC3)cc2)cc1  IC50 (P4HB; enzyme activity, inhibitor): > 100 µM
O[C@H]1[C@H](O)[C@@H](O)c2[nH]cnc2[C@@H]1O  IC50 (bglA (Thermotoga maritima, UniProt Q08638); enzyme activity, inhibitor; pH 6.8, with preincubation): > 100 µM
COCCN(C)C(C)C(=O)NC(Cc1ccc(-c2ccccc2)cc1)B(O)O (stereo not shown)  IC50 (PSMB6/PSMB7 (Homo sapiens, UniProt P28072+Q99436); β1c caspase-like activity, inhibitor; constitutive proteasome, together with: Z-LLE-AMC): > 10 µM
CCCCCOCCCCCN1C[C@H](O)[C@@H](O)[C@H](O)[C@H]1CO  IC50 (GBA1 R534H; inhibitor, 4MU-β-D-glucopyranoside; together with: 4MU-β-D-glucopyranoside): 705 µM
